# Experimental data from different studies.
# Protocols differ between the studies behind these lines.
SMILES,system,conditions,how to read,endpoint,value
CC(=O)N(C)[C@H]1CCN(C(=O)c2cnc3c(c2)C[C@](C)(c2ccc(F)cc2)N3)C1,"male humans, urine","oral, dose not given",,time for most urinary excretion,≤ 24 h
C=CC(=O)NC1CCN(c2ncc3ncnc(Nc4ccc(Oc5ccc6c(c5)ncn6C)c(C)c4)c3n2)CC1,"human, male, plasma","oral, 240 mg, fed and fasted",up to,time quantifiable in plasma,≤ 120 h
CNC(=O)c1cc(Oc2ccc(NC(=O)Nc3ccc(Cl)c(C(F)(F)F)c3)cc2)ccn1,human,"dose not given, most patients",,time to second Cmax,8 to 24 h
CO[C@@H]1[C@H](OC(=O)N2CC(CCN3CCOCC3)C2)CC[C@]2(CO2)[C@H]1[C@@]1(C)O[C@@H]1CC=C(C)C,"human, plasma","subcutaneous, 0.2 mg, single dose",,time to non-quantifiable plasma level,≤ 4 h
CCCCCCCCCCCCCCCC(=O)N[C@@H](CCC(=O)NCCCC[C@@H]1NC(=O)[C@H]([C@@H](C)CC)NC(=O)[C@@H](NC(=O)[C@@H]2CCCN2C(=O)[C@H](Cc2ccccc2)NC(=O)[C@H](Cc2c[nH]cn2)NC(=O)[C@@H](NC(=O)[C@H](CC(=O)O)NC(=O)CC(C)C)[C@@H](C)O)CSSC[C@@H](C(=O)N[C@@H](CCCCN)C(N)=O)NC(=O)CNC(=O)[C@H](CCCCN)NC(=O)[C@H](CO)NC(=O)[C@H](CCCNC(=N)N)NC(=O)[C@@H]2CCCN2C(=O)[C@H](CCC(=O)O)NC(=O)[C@H](Cc2ccccc2)NC1=O)C(=O)O,"healthy human, plasma","subcutaneous, dose not given, first sampling 1 h",,time of first detected concentration,≤ 1 h
O=C(O)CCC(=O)O.[2H]C([2H])([2H])Oc1cc(C)c2[nH]ccc2c1CN1CC[C@@H](C2CC2)C[C@H]1c1ccc(C(=O)O)cc1,"human, plasma",multiple ascending dose,,time to steady state,~7 days
NC(=O)NC1CCC(CCN2CCN(c3cccc(Cl)c3Cl)CC2)CC1 (centres unmarked),human,"dose not given, cariprazine alone",,time to steady state,≤ 28 days
CN[C@@H]1COc2c(S(=O)(=O)NC(=O)Nc3c4c(cc5c3CCC5)CCC4)cnn2C1,human,"oral, dose not given",,time to resolution of liver injury,≤ 87 days
CNC(=O)NC1CCC(CCN2CCN(c3cccc(Cl)c3Cl)CC2)CC1 (centres unmarked),human,"dose not given, cariprazine alone",,time to steady state,≤ 28 days
CN1C(=O)[C@@H](NC(=O)c2nnc(Cc3ccccc3)[nH]2)COc2cccnc21,"human, both sexes, plasma","oral, 10 mg single",,time quantifiable in plasma,≤ 48 h
C[C@@H](N)C1CCN(S(=O)(=O)c2cccc3cnccc23)CC1,"human, plasma","oral, 150 mg, fed",,time quantifiable in plasma,≤ 12 h
C[C@H]1CO[C@@H]2Cn3cc(C(=O)NCc4ccc(F)cc4F)c(=O)c(O)c3C(=O)N12,"human patients, all-treated set","intramuscular, dose not given, long-acting injection with rilpivirine LA, median",,time to injection-site reaction onset,1 days
NC(=S)NN=Cc1ncccc1N,"human, plasma","oral, dose not given",,time above active level,2 to 6 h
C[C@@H](N)C1CCN(S(=O)(=O)c2cccc3c(=O)[nH]ccc23)CC1,"human, plasma","oral, 25 to 250 mg, fasted",,time quantifiable in plasma,≤ 48 h

# Excerpt of the above:
SMILES,system,conditions,how to read,endpoint,value
CO[C@@H]1[C@H](OC(=O)N2CC(CCN3CCOCC3)C2)CC[C@]2(CO2)[C@H]1[C@@]1(C)O[C@@H]1CC=C(C)C,"human, plasma","subcutaneous, 0.2 mg, single dose",,time to non-quantifiable plasma level,≤ 4 h
CCCCCCCCCCCCCCCC(=O)N[C@@H](CCC(=O)NCCCC[C@@H]1NC(=O)[C@H]([C@@H](C)CC)NC(=O)[C@@H](NC(=O)[C@@H]2CCCN2C(=O)[C@H](Cc2ccccc2)NC(=O)[C@H](Cc2c[nH]cn2)NC(=O)[C@@H](NC(=O)[C@H](CC(=O)O)NC(=O)CC(C)C)[C@@H](C)O)CSSC[C@@H](C(=O)N[C@@H](CCCCN)C(N)=O)NC(=O)CNC(=O)[C@H](CCCCN)NC(=O)[C@H](CO)NC(=O)[C@H](CCCNC(=N)N)NC(=O)[C@@H]2CCCN2C(=O)[C@H](CCC(=O)O)NC(=O)[C@H](Cc2ccccc2)NC1=O)C(=O)O,"healthy human, plasma","subcutaneous, dose not given, first sampling 1 h",,time of first detected concentration,≤ 1 h
